Experimental data of several laboratories.
A part holds a random share of what one study measured. Several values in a cell are separate wells, animals, samples, runs or records.
UniProt P23975, sequence (whole entry, looked up): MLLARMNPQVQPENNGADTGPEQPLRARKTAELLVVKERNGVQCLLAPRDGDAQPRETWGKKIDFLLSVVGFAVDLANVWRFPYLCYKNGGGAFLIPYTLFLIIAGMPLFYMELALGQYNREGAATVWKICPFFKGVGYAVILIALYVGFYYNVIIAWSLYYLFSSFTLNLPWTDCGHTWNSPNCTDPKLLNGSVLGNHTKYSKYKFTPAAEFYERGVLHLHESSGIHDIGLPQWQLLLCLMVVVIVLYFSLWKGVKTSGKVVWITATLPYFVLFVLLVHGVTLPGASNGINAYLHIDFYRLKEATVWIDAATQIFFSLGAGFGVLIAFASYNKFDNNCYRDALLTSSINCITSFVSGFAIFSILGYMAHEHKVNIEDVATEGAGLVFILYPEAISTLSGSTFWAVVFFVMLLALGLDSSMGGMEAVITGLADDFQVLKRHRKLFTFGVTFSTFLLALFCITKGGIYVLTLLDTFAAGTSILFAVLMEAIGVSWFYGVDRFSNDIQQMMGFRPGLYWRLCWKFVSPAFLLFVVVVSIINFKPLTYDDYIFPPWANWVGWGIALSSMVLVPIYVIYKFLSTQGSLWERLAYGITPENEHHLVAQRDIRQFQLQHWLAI
UniProt P62344, sequence (whole entry, looked up): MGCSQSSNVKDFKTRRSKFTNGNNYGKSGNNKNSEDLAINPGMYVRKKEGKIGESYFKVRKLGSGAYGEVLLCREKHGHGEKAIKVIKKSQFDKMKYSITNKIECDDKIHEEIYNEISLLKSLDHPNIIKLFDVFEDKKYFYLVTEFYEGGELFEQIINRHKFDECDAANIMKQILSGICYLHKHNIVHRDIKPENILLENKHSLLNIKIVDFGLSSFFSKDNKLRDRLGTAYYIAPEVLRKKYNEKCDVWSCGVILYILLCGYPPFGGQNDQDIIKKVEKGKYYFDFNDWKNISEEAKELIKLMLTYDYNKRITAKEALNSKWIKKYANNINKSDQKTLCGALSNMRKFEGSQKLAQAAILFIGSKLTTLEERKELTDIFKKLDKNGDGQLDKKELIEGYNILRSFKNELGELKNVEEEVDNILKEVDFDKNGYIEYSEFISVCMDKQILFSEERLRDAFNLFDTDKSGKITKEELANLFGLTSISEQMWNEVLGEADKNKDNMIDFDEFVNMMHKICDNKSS

Study 1 — cell line: HEK-293T; read-out: pseudovirus infection; method: FDA-approved drug library counter-screen; organism: VSV pseudotyped with VSV-G; tested at: 10 µM; time: 16 h; relative to: vehicle-treated
SMILES | GFP-positive cells
CNCC(O)c1ccc(OC(=O)C(C)(C)C)c(OC(=O)C(C)(C)C)c1 (stereo not drawn) | 111%
O=C1C(O)=C([C@H]2CC[C@H](c3ccc(Cl)cc3)CC2)C(=O)c2ccccc21 | 2.12%
CC(=O)OCC(=O)[C@H]1CC[C@H]2[C@@H]3CCC4=CC(=O)CC[C@]4(C)[C@H]3CC[C@]12C | 100%
c1ccc(CC2=NCCN2)cc1 | 118%
CC1(C)O[C@@H]2[C@@H](CO[C@@]3(COS(N)(=O)=O)OC(C)(C)O[C@@H]23)O1 | 94.6%

Study 2 — medium: plasma; route: intravenous
Compound: O=C1CCC(N2Cc3c(ccc4c3OCC43CCN(Cc4ccccc4)CC3)C2=O)C(=O)N1 (stereo not drawn)
species | dose | clearance
male Sprague-Dawley rat | 1 mg/kg | 20.8 mL/min/kg
male CD-1 mouse | 1 mg/kg | 39.7 mL/min/kg
Sprague Dawley rat, male | 1.0 mg/kg | 20.1 mL/min/kg
male ICR mice | 1.0 mg/kg | 41.8 mL/min/kg and 36.8 mL/min/kg

Mixed results
SMILES | tested on | assay | test system | conditions | measurement | result
CC(=O)C1=C(C)N(c2cccc(C(F)(F)F)c2)C(=O)N[C@@H]1c1ccc(C#N)nc1 | CDPK1 (Plasmodium falciparum, UniProt P62344) | cell-free assay, competition with immobilised ligand |  | 1 µM | remaining binding | 94.8%
N#Cc1ccc(Oc2ncccc2C#N)cc1Cl |  |  | human, microsomes or S9 | 2 µM, 0.5 h | remaining compound | > 99%
O=C1NC(c2ccccn2)Sc2ccccc21 (stereo not drawn) | SLC6A2 (Homo sapiens, UniProt P23975) | ligand displacement |  | 10 µM | inhibition | 28.7%

Some of these lines once more (study 2):
species | dose | clearance
male CD-1 mouse | 1 mg/kg | 39.7 mL/min/kg
